Measured values gathered from unrelated publications.
Route: oral

Compound	assay	test system	conditions	measurement	result
Cc1cc(NC2CCN(C(=O)OC3CCN(C(=O)/C=C/CN(C)C)C3)CC2)n2ncc(C(C)C)c2n1 (centres unmarked)	CTCAE v4.0, measured: Nausea	patients with advanced solid tumours	dose not given, TIW, grade 3 or higher	patients with TEAE	0%
Cc1cc(-c2nnc(N)nc2-c2ccc(F)cc2)cc(Cl)n1	measured: Nausea	other solid tumours, post-IO	100 mg once daily, all grades	patients with treatment-related AE	57.1%
O=C(Nc1nc2cccc(-c3ccc(CN4CCS(=O)(=O)CC4)cc3)n2n1)C1CC1		rheumatoid arthritis patients	100 mg twice daily, 4 weeks, regardless of relatedness	patients with metabolism disorders	0%
C[C@@H](Nc1cc(F)cc(F)c1)c1cc(C(=O)N(C)C)cc2c(=O)cc(N3CCOCC3)oc12	measured: Pneumonia	advanced solid tumour patients	dose not given, dose expansion	patients discontinuing for AE	0%
CNC(=O)c1ccc(-c2cnc3ncc(Cc4ccc5ncccc5c4)n3n2)cc1F	measured: Pruritus, all grades	hepatocellular carcinoma patients	600 mg twice daily, expansion cohort, any causality	patients with adverse event	0%
CNC(=O)c1cc(Oc2ccc(NC(=O)Nc3cc(C(C)(C)C)nn3-c3ccc4ncccc4c3)c(F)c2)ccn1		patients	dose not given, cycles 1 and 2, High Cmax subgroup	patients with visual abnormalities	28%
COc1cc(Nc2ncc3c(n2)-c2ccc(Cl)cc2C(c2c(F)cccc2OC)=NC3)ccc1C(=O)O		cancer patients	dose not given, all grades any attribution, together with: pembrolizumab	patients with acneiform rash	13%
CCOc1c([C@H](C)n2nc(C)c3c(N)ncnc32)cc(Cl)c(F)c1[C@@H]1CNC(=O)C1	measured: ΔQTcF > 60 ms	previously treated B-cell malignancy	20 mg once daily, baseline QTcF ≤450 ms	patients with high heart rate	2.9%
